Assay results of several laboratories.
Lines come from different studies, so protocols differ. Values joined by “and” are separate records of one study, mostly repeats; a detail may differ. ± gives the spread as reported.
UniProt Q05513, sequence (whole entry, looked up): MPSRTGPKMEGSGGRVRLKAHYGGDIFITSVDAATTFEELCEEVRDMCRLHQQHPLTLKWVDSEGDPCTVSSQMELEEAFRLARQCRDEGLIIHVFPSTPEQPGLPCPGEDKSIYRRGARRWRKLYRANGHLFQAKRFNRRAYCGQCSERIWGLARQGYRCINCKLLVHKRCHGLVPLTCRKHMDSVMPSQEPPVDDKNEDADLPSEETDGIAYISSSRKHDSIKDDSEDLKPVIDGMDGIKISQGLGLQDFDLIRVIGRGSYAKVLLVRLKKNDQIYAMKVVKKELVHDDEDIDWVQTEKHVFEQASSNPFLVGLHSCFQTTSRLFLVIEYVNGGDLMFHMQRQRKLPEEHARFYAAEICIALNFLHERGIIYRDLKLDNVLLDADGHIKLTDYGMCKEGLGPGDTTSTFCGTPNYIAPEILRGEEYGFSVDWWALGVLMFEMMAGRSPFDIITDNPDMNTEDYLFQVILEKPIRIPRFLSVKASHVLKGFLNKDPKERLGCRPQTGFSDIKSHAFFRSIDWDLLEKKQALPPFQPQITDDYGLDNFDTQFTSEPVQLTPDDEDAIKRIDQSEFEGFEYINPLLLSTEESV

SMILES	tested on	test	test system	conditions	how to read	measurement	result
CC(=O)O[C@H]1OC[C@@H]2C=C([C@]3(C)CCCC(C)(C)C3)CC[C@H]12	primary human T lymphocytes	MTT	–	1 µM, 48 h, 10% FBS	–	viability decrease	15 to 25%
O=C1NC2(CC2)COc2ncc(F)cc2[C@H]2COCCN2c2ccn3ncc1c3n2	–	–	Sprague-Dawley rat, female, heart	oral, 2.5 mg/kg/day, 4 weeks, end of treatment	–	organ-to-brain weight ratio	66 ± 11.2%
C/C=C(/C)C(=O)OC[C@H]1[C@@H](Cc2ccc(C(C)(C)C)cc2)CO[C@@H]1c1ccc(F)cc1	rat aortic VSMCs	–	–	30 µM, 24.5 h	–	LDH release	41.4 ± 3.7%
O=C1NC(=O)c2c1c1cc(F)c[n+]3c1c1c2c2cc(O)ccc2[n]1[Ru-4]312([N]=C=S)[S+]3CC[S+]1CC[S+]2CC3 (centres unmarked)	Protein kinase C zeta type (PRKCZ, Homo sapiens, UniProt Q05513)	enzyme activity	–	100 nM, human enzyme, together with: 10 µM ATP	baseline: untreated	remaining activity	88%
CNC(=O)C[C@H](Cc1ccccc1)NC(=O)[C@@H](Cc1ccc(Cl)cc1Cl)NC(=O)[C@H](N)Cc1ccccc1C#N	Huh-7-ACE2	CellTiter-Glo	–	6.25 µM, 48 h, unit not given	baseline: DMSO	viability	1.14 and 0.861 and 0.967
c1ccc(CCNC2CCCc3c2[nH]c2ccc(C4CCCCC4)cc32)cc1 (centres unmarked)	A549	–	–	50 µM, 23 h	–	non-viable cells	79.4 ± 16.4%
CCOc1ccc(CN2CC[C@H]2C(=O)NC)cc1-c1cccc(C(=O)NC[C@@H]2COC(C)(C)O2)c1	Huh-7-ACE2	CellTiter-Glo	–	0.000381 µM, 48 h, unit not given	baseline: DMSO	viability	1.03 and 0.961 and 0.998
Nc1nc2ccc(Oc3ccc4nc(N)sc4c3)cc2s1	A549	XTT	–	500 µM, 20 h, 10% FBS	–	cell death	~80%
CC(C)C[C@@H]1NC(=O)[C@H](C(C)C)NC(=O)[C@]2(C)CCCN2C(=O)[C@H](C(C)C)NC(=O)[C@H](Cc2ccccc2)NC(=O)CSCCNC(=O)[C@H](Cc2ccccc2)N(C)C(=O)[C@H](CC(C)C)NC(=O)[C@H](CCC2CCCCC2)NC1=O	LLC-PK1	–	Caco-2	–	–	Papp A→B	0.01 ×10⁻⁶ cm/s
N=C(N)NCCC[C@H](NC(=O)[C@H](CCCNC(=N)N)NC(=O)[C@H](CCCNC(=N)N)NC(=O)[C@H](CCC(N)=O)NC(=O)[C@H](CCCNC(=N)N)NC(=O)[C@H](CCCNC(=N)N)NC(=O)[C@H](CCCCN)NC(=O)[C@H](CCCCN)NC(=O)[C@H](CCCNC(=N)N)NC(=O)CNC(=O)[C@H](Cc1ccc(O)cc1)NC(=O)[C@H](Cc1ccccc1)NC(=O)[C@H](Cc1ccccc1)NC(=O)[C@H](Cc1ccccc1)NC(=O)OCC1c2ccccc2-c2ccccc21)C(=O)O	RAW264.7	flow cytometry	–	FITC-labelled compound	baseline: control	cellular internalization	decreased
COc1ccccc1-c1n[nH]c2nc(NC3CCN(C(=O)Cc4ccc(F)cc4F)CC3)ncc12	–	bead binding, competition bead pull-down, refers to: LINJ.28.2700	Leishmania donovani extract	10 µM	baseline: vehicle	relative abundance	1.1
CC[C@H](C)[C@H](NC(=O)[C@@H](NC(=O)[C@H](C)NC(=O)[C@H](C)NC(=O)[C@H](CCC(N)=O)NC(=O)CNC(=O)[C@@H](NC(=O)[C@@H](NC(=O)[C@H](C)NC(=O)[C@@H](NC(=O)[C@H](C)NC(=O)[C@@H]1CCCN1C(=O)CNC(=O)[C@H](C)NC(=O)[C@H](CCCCN)NC(=O)[C@@H](NC(=O)[C@@H](NC(=O)CNC(=O)[C@H](CC(=O)O)NC(=O)[C@H](CCCNC(=N)N)NC(=O)[C@@H](NC(=O)[C@H](CC(N)=O)NC(=O)[C@H](CCC(N)=O)NC(=O)CNC(=O)[C@@H](NC(=O)[C@H](CCCCN)NC(=O)[C@H](CCC(=O)O)NC(=O)[C@@H](NC(=O)[C@H](CCCCN)NC(=O)[C@H](CCCCN)NC(=O)[C@H](Cc1ccccc1)NC(=O)[C@@H](NC(=O)[C@H](CCCCN)NC(=O)[C@H](Cc1c[nH]c2ccccc12)NC(=O)[C@@H](N)CCCNC(=N)N)[C@@H](C)CC)[C@@H](C)CC)C(C)C)[C@@H](C)CC)[C@@H](C)CC)C(C)C)C(C)C)C(C)C)C(C)C)[C@@H](C)O)C(N)=O	MX1	CCK-8	–	8 µM, 24 h, 1% FBS	–	cytotoxicity	not toxic
Brc1ccc(CCNC2CCCc3c2[nH]c2ccc(C4CCCCC4)cc32)cc1 (centres unmarked)	A549	–	–	50 µM, 23 h	–	non-viable cells	84.8 ± 10.9%
CN(C)CCCNC(=O)[C@@H]1NC(=O)[C@@H]2Cc3ccc(cc3)Oc3cc4cc(c3O)-c3ccc5c(c[nH]c5c3)C[C@@H](NC(=O)C(NC(=O)CCCCCN)c3ccc(O)cc3)C(=O)N[C@H](c3ccc(O)cc3)C(=O)N[C@H]4C(=O)N[C@@H](C(=O)N2C)c2ccc(cc2)Oc2cc1ccc2O (some centres unmarked)	human red blood cells	–	–	256 µg/mL, 1 h, 37 °C, 1% DMSO	–	hemolysis	0%
O=S(=O)(c1ccc(-c2ccc3ncnc(Nc4ccc(OCc5cccc(F)c5)c(Cl)c4)c3c2)cc1)N1CCNCC1	NIH 3T3	PrestoBlue	–	96 h	–	TC50	42 µM
CC[C@H](C)[C@H](NC(=O)[C@H](C)NC(=O)[C@H](CCCCN)NC(=O)[C@H](CCCCN)NC(=O)[C@@H](N)CCCNC(=N)N)C(=O)N[C@@H](CCCCN)C(=O)N[C@@H](CC(C)C)C(=O)N[C@H](C(=O)N[C@@H](CCCCN)C(=O)N[C@@H](CCCCN)C(=O)N[C@@H](CC(C)C)C(=O)N[C@H](C(=O)N[C@@H](CCCCN)C(=O)N[C@@H](CCCCN)C(=O)N[C@@H](CC(C)C)C(=O)N[C@@H](CCCCN)C(=O)N[C@@H](CCCCN)C(=O)N[C@@H](C)C(=O)N[C@@H](CC(C)C)C(=O)N[C@@H](CCCCN)C(=O)O)C(C)C)C(C)C	human red blood cells	–	PBS	1 mg/L	–	hemolysis	1.5%
CC(C)(C)C(=O)OCOP(=O)(OCOC(=O)C(C)(C)C)C1CCCN(O)C1=O (centres unmarked)	DU-145	–	–	–	–	log GI50	-6.08 log M
CNC(=O)C[C@H](Cc1ccncc1)NC(=O)[C@@H](Cc1cccc(Br)c1)NC(=O)[C@@H](N)Cc1cccc(F)c1	Huh-7-ACE2	CellTiter-Glo	–	1.562 µM, 48 h, unit not given	baseline: DMSO	viability	1 and 0.987 and 0.948

SMILES	tested on	test	test system	conditions	how to read	measurement	result
C#Cc1ccc(C[C@@H]2NC(=O)CSCCNC(=O)[C@H](Cc3ccccc3)N(C)C(=O)[C@H](CC(C)C)NC(=O)[C@H](Cc3cccc4ccccc34)NC(=O)[C@H](CC(C)C)NC(=O)[C@H](C(C)C)NC(=O)[C@@H]3CCCN3C(=O)[C@H](C(C)C)NC2=O)cc1	LLC-PK1	–	Caco-2	–	–	Papp A→B	0.02 ×10⁻⁶ cm/s
CC(C)[C@H]1NC(=O)[C@H](Cc2ccccc2)NC(=O)[C@@H](C(C)C)NC(=O)[C@@H](C)NC(=O)[C@H](CO)NC(=O)[C@@H](Cc2c(-c3ccc(-c4ccc5ccccc5c4)cc3)[nH]c3ccccc23)NC(=O)[C@@H](CO)NC1=O	RAW264.7	MTT	–	50 µM, 24 h	–	cytotoxicity	not toxic
CC(=O)NCC(=O)N[C@@H](CCCNC(=N)N)C(=O)N[C@@H](CCCCN)C(=O)N[C@@H](CCCCN)C(=O)N[C@@H](CCCNC(=N)N)C(=O)N[C@@H](CCCNC(=N)N)C(=O)N[C@@H](CCC(N)=O)C(=O)N[C@@H](CCCNC(=N)N)C(=O)N[C@@H](CCCNC(=N)N)C(=O)N[C@@H](CCCNC(=N)N)C(=O)N1CCC[C@H]1C(=O)N[C@@H](CCC(N)=O)C(N)=O	HEK293T cells	LC-MS	cytoplasmic fraction	20 µM, 2 h	–	peptide concentration	313 pmol/mg protein and 339 pmol/mg protein and 423 pmol/mg protein
COc1cc(/C=C/c2ccc3c(c2)[C@@H](c2cc(O)cc(O)c2)[C@H](c2ccc(O)cc2)O3)cc(OC)c1	Calu-3	–	–	1 (unit not given)	–	CC50	759 µM
CC1OCC2OC(OC3C(N)CC(N)C(O)C3OC3OC(CO)C(OC4OC(CN)C(O)C(O)C4N)C3O)C(N)C(O)C2O1 (centres unmarked)	NIH 3T3	–	–	72 h, 10% fetal bovine serum	–	25% lethal concentration	> 1200 µM
CNC(=O)C[C@H](Cc1ccc(F)cc1)NC(=O)[C@@H](Cc1ccc(Cl)cc1Cl)NC(=O)[C@H](N)Cc1ccccc1C#N	Huh-7-ACE2	CellTiter-Glo	–	3.125 µM, 48 h, unit not given	baseline: DMSO	viability	0.905 and 0.899 and 0.928
CC[C@H](C)[C@H](NC(=O)[C@H](CO)NC(=O)[C@H](Cc1ccc(O)cc1)NC(=O)[C@H](Cc1ccc(O)cc1)NC(=O)[C@H](CC(N)=O)NC(=O)CNC(=O)[C@H](CO)NC(=O)[C@H](Cc1ccc(O)cc1)NC(=O)[C@H](CO)NC(=O)[C@H](CO)NC(=O)[C@H](CC(N)=O)NC(=O)COCCOCCNC(=O)CN1CCN(CC(=O)O)CCN(CC(=O)O)CCN(CC(=O)O)CC1)C(=O)N[C@@H](CC(C)C)C(N)=O [copper-64 labelled]	–	dynamic PET	KPC mouse Ptf1a-CreER tdTomato, metastases	intravenous, 4.6 MBq/mouse, 22.5 min, 84 d after tamoxifen	–	tissue uptake	13.4 %ID/mL
Fc1cccc(COc2ccc(Nc3ncnc4ccc(-c5ccc(CN6CCCCC6)cc5)cc34)cc2Cl)c1	NIH 3T3	PrestoBlue	–	96 h	–	TC50	12.8 µM
CNC(=O)CC[C@H](Cc1ccccc1)NC(=O)[C@@H](Cc1ccc(Cl)cc1Cl)NC(=O)[C@H](N)Cc1ccccc1[N+](=O)[O-]	Huh-7-ACE2	CellTiter-Glo	–	0.0122 µM, 48 h, unit not given	baseline: DMSO	viability	0.939 and 1.1 and 0.956
Cc1ccc2[nH]c3c(c2c1)CCCC3NCCC12CC3CC(CC(C3)C1)C2 (centres unmarked)	A549	–	–	50 µM, 23 h	–	non-viable cells	78.2 ± 20.4%
COc1ccccc1-c1n[nH]c2nc(N[C@H]3CC[C@H](NS(=O)(=O)CC(C)C)CC3)ncc12	–	bead binding, competition bead pull-down, refers to: LINJ.26.2250	Leishmania donovani extract	10 µM	baseline: vehicle	relative abundance	1.13
CNC(=O)CC1CN(C(=O)c2ccc(C(F)(F)F)cn2)CCN1C(=O)c1cccnn1 (centres unmarked)	Huh-7-ACE2	CellTiter-Glo	–	12.5 µM, 48 h, unit not given	baseline: DMSO	viability	1.06 and 0.99 and 0.813
CC[C@H](C)[C@@H]1NC(=O)[C@H](C(C)C)NC(=O)[C@H](C(C)C)NC(=O)[C@H](CC(C)C)NC(=O)C[C@@H](C(=O)N[C@@H](Cc2c[nH]c3ccccc23)C(=O)N[C@@H](CC(N)=O)C(=O)N[C@@H](C)C(=O)N2CCC[C@H]2C(=O)NCC(=O)N[C@@H](Cc2c[nH]c3ccccc23)C(=O)N[C@@H](Cc2ccccc2)C(=O)O)NC(=O)[C@H](C)NC(=O)[C@H](CCC(N)=O)NC(=O)[C@H](C(C)C)NC1=O	A549	–	–	10 µM	–	cytotoxicity	not toxic
Cc1cc(-c2ccc3ccccc3c2)nnc1NCCN1CCN(C)CC1	Caco-2	bidirectional permeability	–	together with: 1.0 µM valspodar	–	P-gp substrate classification	negative
C[C@@H]1O[C@@H](O[C@@H]2[C@@H](O)[C@H](O)[C@@H](CO)O[C@H]2c2c(O)cc(O)c3c(=O)cc(-c4ccc(O)cc4)oc23)[C@H](O)[C@H](O)[C@H]1O	Caco-2	CCK-8	–	5 µM, 24 h	–	viability	106%
CN(C)[C@H]1C[C@@]23CC[C@@]4(O2)C(=CC[C@]2(C)[C@@H](c5ccc6ccncc6c5)CC[C@H]24)C=C3[C@@H](O)[C@@H]1O	Dual specificity mitogen-activated protein kinase kinase 1 (MAP2K1, Homo sapiens, UniProt Q02750)	ATP probe labelling, inhibitor, KiNativ profiling	–	0.1 µM	–	inhibition	-18.8%
CC(C)C[C@@H]1NC(=O)[C@H](C(C)C)NC(=O)[C@@H]2CCCN2C(=O)[C@H](C(C)C)NC(=O)[C@H](Cc2ccccc2)NC(=O)CSCCNC(=O)[C@H](Cc2ccccc2)N(C)C(=O)[C@H](CC(C)C)NC(=O)[C@H](Cc2cccc3ccccc23)NC1=O	LLC-PK1	–	Caco-2	–	–	Papp A→B	0.01 ×10⁻⁶ cm/s

For quick reference, copied from above:
SMILES	tested on	test	test system	conditions	how to read	measurement	result
Fc1cccc(COc2ccc(Nc3ncnc4ccc(-c5ccc(CN6CCCCC6)cc5)cc34)cc2Cl)c1	NIH 3T3	PrestoBlue	–	96 h	–	TC50	12.8 µM
c1ccc(CCNC2CCCc3c2[nH]c2ccc(C4CCCCC4)cc32)cc1 (centres unmarked)	A549	–	–	50 µM, 23 h	–	non-viable cells	79.4 ± 16.4%
N=C(N)NCCC[C@H](NC(=O)[C@H](CCCNC(=N)N)NC(=O)[C@H](CCCNC(=N)N)NC(=O)[C@H](CCC(N)=O)NC(=O)[C@H](CCCNC(=N)N)NC(=O)[C@H](CCCNC(=N)N)NC(=O)[C@H](CCCCN)NC(=O)[C@H](CCCCN)NC(=O)[C@H](CCCNC(=N)N)NC(=O)CNC(=O)[C@H](Cc1ccc(O)cc1)NC(=O)[C@H](Cc1ccccc1)NC(=O)[C@H](Cc1ccccc1)NC(=O)[C@H](Cc1ccccc1)NC(=O)OCC1c2ccccc2-c2ccccc21)C(=O)O	RAW264.7	flow cytometry	–	FITC-labelled compound	baseline: control	cellular internalization	decreased
CNC(=O)C[C@H](Cc1ccncc1)NC(=O)[C@@H](Cc1cccc(Br)c1)NC(=O)[C@@H](N)Cc1cccc(F)c1	Huh-7-ACE2	CellTiter-Glo	–	1.562 µM, 48 h, unit not given	baseline: DMSO	viability	1 and 0.987 and 0.948
